Measurements of several laboratories.
Numbered parts are unrelated; each lists some results of a single study.

Sample 1
Target: RING finger protein unkempt homolog, zinc fingers 1-6, GST-SBP tag (UNK, Homo sapiens, UniProt Q9C0B0, residues 30-357)
Sequence of UniProt Q9C0B0 (30-357, looked up): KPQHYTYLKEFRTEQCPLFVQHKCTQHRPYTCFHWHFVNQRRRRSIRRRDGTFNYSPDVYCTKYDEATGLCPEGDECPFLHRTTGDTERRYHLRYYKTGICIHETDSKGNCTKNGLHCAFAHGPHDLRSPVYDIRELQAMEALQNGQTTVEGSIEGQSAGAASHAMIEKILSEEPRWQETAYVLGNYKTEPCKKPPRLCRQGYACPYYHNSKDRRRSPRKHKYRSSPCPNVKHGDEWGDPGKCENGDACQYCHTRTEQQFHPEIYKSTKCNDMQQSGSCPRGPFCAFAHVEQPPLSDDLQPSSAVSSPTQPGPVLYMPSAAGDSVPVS
Technique: RNA Bind-n-Seq
Molecule type: RNA
Matrix: in vitro
Tested at: not given
Setting: RNA with constant flanks, human and mouse sites, ends assumed
Relative to: input RNA pool
Direction: higher = stronger binding
Shared flanks, not repeated: GGGAGUUCUACAGUCCGACGAUC … CAACAGAGGAUUGAGCAUCA
Strand	bound/input enrichment
CCUGAGAAUGUCUAUAGCGUUCACUUCGAAAAGGAGCAUAAAGCUGAGAAAGUCCCAGCCGUAGCUAACUACAUUAUGAAAAUACACAAUUUUACUAGCAAAUGCCUCUACUGUAAUCGC	22.2 ratio
CUUCGGGUUUCUGAGACUGUGGCAUUCACUGACGUGAAUUCAAUCCUGCGCUACCUGGCUAGAAUUGCAACUACGUCUGGGCUGUAUGGGACUAACCUGAUGGAGCACACUGAGAUUGAU	1.02 ratio
UUUGGCAAAAUCUUCCCUAAACCUAAUUUGAACAUCACAGAAGAGAUUACAGAAGACUCUGAUGAAAUACCUUCACAAUUUAUUUCUAGAAAAGAGUUGGAAAAGGGUCGUAUUUCUAGA	0.326 ratio
AAAUUCUACAAACAAGUUAUUGAUAAAGGCCAGACAAUUCCAGAGGACAUCUUAGGGAAAAUAGCAGUUUCUAUUGUAAAAGCAUUAGAACAUUUACAUAGUAAGCUGUCUGUCAUUCAC	0.677 ratio
GCUUGGCAAGGUCUCGCUUUGCUGGUCCACAGAACAGUGGUUUUGCCACCAACUCAGUUUUCUUUGGACGACAGAGGAAGUAAAACUCCAGACAAUUCUGUCCCGAACUCCUCAAGUCUG	0.102 ratio
AUGUACAGGAAGAGCCAAGCCACAGGCUUUCCAUCACUUAUUACAAUUUUCUCUGCCCCCAAUUACCUAGAUGUCUAUAACAAUAAAGCUGCUGUGUUGAAAUAUGAAAACAAUGUCAUG	14.6 ratio
GGGAGGCGUCCUGGGUGGAGGCAGUUCCAACCAGCAGCAGCAAAUACAGCUGCAGCAGUUACAGAUGGAGAAGGAGAGACUGCGGUUGAAACAACAGGAAUUAUUUCGGCAGGAAUUAGC	0.568 ratio
CACCCUCAGCCCAGUAUCAUCCCCCUGGAGCAGGGCUCCCCACUGGCUUCAGCAGGCCCUGGCACCUGCUCACCGGACAGCUUCUGCUGCUCUCCUGAUUCCUGCUCCGGAGCUUCUUCU	0.203 ratio
ACCUUUGAUUUCAAAGGCGUGAUUGACUACAUUUUCUAUUCCAAGACUCAUAUGAACGUGCUUGGUGUCCUGGGGCCUUUAGAUCCUCAAUGGCUGGUUGAGAACAACAUCACUGGGUGU	0.206 ratio
AAAUAUGAAACUGUGCAAGACAUUCUGAAAGAAUUCUUUGAUUUACGAUUAAGUUAUUACGGUUUACGUAAGGAGUGGCUUGUGGGAAUGUUGGGAGCAGAAUCUACAAAGCUUAACAAU	0.188 ratio
GGGACGAUUCAUCUCUUUCGAAAGCCACAGAGAUCUUUUUUUGGAAAGUUACUACAGGAAUUUAGACUUGUCGCAGCUGACCGGAGGUCCUGGAAGAUCCUUCUGUUCGGUGCAAUCAAC	0.138 ratio

Sample 2
Target: Ras GTPase-activating protein-binding protein 1, full length (G3BP1, Homo sapiens, UniProt Q13283)
Sequence of UniProt Q13283 (whole entry, looked up): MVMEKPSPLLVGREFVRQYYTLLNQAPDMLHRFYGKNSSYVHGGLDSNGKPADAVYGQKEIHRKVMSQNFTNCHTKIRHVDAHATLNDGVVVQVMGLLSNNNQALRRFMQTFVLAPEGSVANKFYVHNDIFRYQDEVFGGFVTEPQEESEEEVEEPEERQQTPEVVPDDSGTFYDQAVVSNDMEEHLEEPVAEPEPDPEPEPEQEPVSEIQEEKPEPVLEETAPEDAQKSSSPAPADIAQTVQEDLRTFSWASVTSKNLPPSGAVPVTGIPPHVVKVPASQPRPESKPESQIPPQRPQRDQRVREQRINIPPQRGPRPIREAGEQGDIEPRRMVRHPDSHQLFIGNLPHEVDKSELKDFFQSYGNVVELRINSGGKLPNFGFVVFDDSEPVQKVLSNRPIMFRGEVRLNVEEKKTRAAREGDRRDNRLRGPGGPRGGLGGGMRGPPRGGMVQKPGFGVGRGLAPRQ
Technique: RNA Bind-n-Seq
Molecule type: RNA
Matrix: in vitro
Tested at: 200 nM
Setting: whole 134-nt RNA, ends assumed
Together with: 150 mM LiCl
Relative to: input library
Direction: higher = stronger binding
All molecules: 7-deaza-guanosine replaces G
Shared flanks, not repeated: GGGAGUUCUACAGUCCGACGAUC … UGGAAUUCUCGGGUGUCAAGG
Strand	log2 enrichment
CCUGUGCUACACAUCGUAUGUACCGAAUCGGGGUUUUUGGGGAAAGGGGAAAAAAAGGGGAAAGUAUUAUGUUACGCCGUUCGGAUCUGC	0.584
CCUGUGCUACACAUCGUAUGUACCGAAUCGGGGUUUUUGGGGAAAAAAAGGGGAAAGGGGAAAGUAUUAUGUUACGCCGUUCGGAUCUGC	-0.214
UGAUGGGACAACACCCGAAAGGAUAGCACAAAUAACAGGACCUCCAGACCGAUGUCAACAUGCUGCAGAAAUUAUUACAGACCUUCUUCG	0.917
UCCAGCCACUCACCGGCGAUCCAGGUCCAGAACCCCCCUGAUAAGCCGACGUAGGUCCAGAUCUCGAACUUCACCAGUCAGCCGGAGACG	0.14
UAAGUUUAGAGGAGGAUCUGAUGGAUAUGGCAGUGGACGUGGAUUUGGGGAUGGCUAUAAUGGGUAUGGAGGAGGACCUGGAGGUGGCAA	-0.29
UCCUGUGCUACACAUCGUAUGUACCGAAUCAAAUUUUUUUAAACCCAAACCCCCCCAAAAAAGUAUUAUGUUACGCCGUUCGGAUCUGCA	1.08
CCUCAAGUCCUGUGCUACACAUCGUAUGUACCGAAUCGGGAGGAGGGGAGGGGAAAGUAUUAUGUUACGCCGUUCGGAUCUGCACUUCCA	0.345
CACAGACAACACGCACCCACACAGACACAGAGGGAAAAGGUUGGGAUGGGGACAGGGUGCACAGCAGGGCGGGGUAGGACCCCAGCCCCU	-1.52
UCAAGUCCUGUGCUACACAUCGUAUGUACCGAAUCGGAAAGGGAAAGGGAAAGGAAAGUAUUAUGUUACGCCGUUCGGAUCUGCACUUCC	-0.152
UCCUGUGCUACACAUCGUAUGUACCGAAUCGGGGCCCCCCGGGGCCCCCCGGCCCCCCGGAAAGUAUUAUGUUACGCCGUUCGGAUCUGC	-0.172
CCUGUGCUACACAUCGUAUGUACCGAAUCGGGGAAAGGGGUUUUUGGGGUUUUUUUGGGGAAAGUAUUAUGUUACGCCGUUCGGAUCUGC	0.997

Sample 3
Target: Phosphate system positive regulatory protein PHO4, full length, GST-tagged (PHO4, Saccharomyces cerevisiae, UniProt P07270, residues 1-312)
Sequence of UniProt P07270 (whole entry, looked up): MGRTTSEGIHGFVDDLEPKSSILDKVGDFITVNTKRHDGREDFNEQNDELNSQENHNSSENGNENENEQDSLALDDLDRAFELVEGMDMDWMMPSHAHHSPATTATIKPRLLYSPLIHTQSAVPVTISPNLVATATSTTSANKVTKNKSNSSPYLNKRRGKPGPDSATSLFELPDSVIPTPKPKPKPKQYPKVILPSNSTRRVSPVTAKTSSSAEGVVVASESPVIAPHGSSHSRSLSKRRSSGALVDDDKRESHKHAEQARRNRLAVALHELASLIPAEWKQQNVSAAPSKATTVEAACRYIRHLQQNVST
Technique: competition protein-binding microarray
Molecule type: double-stranded DNA, one strand shown
Matrix: in vitro
Tested at: 2 µM
Setting: whole 60-bp probe, lowest competitor level
Together with: Cbf1 competitor, 0.05 µM
Direction: higher = stronger binding
Shared flanks, not repeated: … GTCTTGATTCGCTTGACGCTGCTG
Strand	fluorescence intensity [a.u.]
AAATTACTAAGTTTTCACGTGCCCTACCCCGTATGA	15900
CATCGGCCCAACTTGATCATGCAATTAGCAAGCAAC	4260
CTTTCCCGATCTTGTCACGTGGGTGTAGCACATTTG	16800
CGGGGTTAAGTTTGCCCTGTGGGTGGCTTGCAGCAG	5500
CTTTCCCGATCTTGCGTAGTGGGTGTAGCACATTTG	4620
ATTAAAGAAAAATTAAACGTGATGGGTCTATCGAGC	10900
ATCTTGGGGATTACCCACGTGCTGTAACAAACGGTT	20600
GCTTTTCCTAACGCGAACGTGCAAAGCATCGTTATT	12000
AACTGCGACCGACACAGCGTGCGATACTAGGGAAGT	8080
GAGCCTGTCGCCTCTTACATGACAAAAATGTTGGAA	3660
CATACCCAACCTTGACGGGTGGGTGAAGATATTTGT	4720
CGTCCTAGTGATTTTCACGTGTGCTCCATGAGGAAG	11100
CAATACTCTTTGTCCCACGATGCAACTTTGAAAGGT	11300
CGTCCTAGTGATTGGCCCGTGGGTGCCATGAGGAAG	11400
CATACCCAACCTTGGAACGTGGGTGAAGATATTTGT	14300
TTGCTTTATCGAAAATCCGTGATGGCGGTCCTTCAG	3350

Sample 4
Target: Histone acetyltransferase KAT6A, winged helix 1, GST fusion (KAT6A, Homo sapiens, UniProt Q92794, residues 1-85)
Technique: protein binding microarray
Molecule type: double-stranded DNA, one strand shown
Matrix: in vitro
Tested at: not given
Setting: 8-mer, flanks averaged, mean of 2 arrays, mostly near background
Relative to: not given
Direction: higher = stronger binding
Construct (chain): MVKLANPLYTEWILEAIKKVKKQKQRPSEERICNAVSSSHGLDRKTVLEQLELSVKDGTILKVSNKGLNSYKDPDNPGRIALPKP
Strand	E-score
AAACACCA	-0.0703
ACACAACC	-0.043
CGATGCTC	0.0656
ACGAGCGT	0.0704
ACCAAAAG	-0.161
CCACGCCC	0.188
AGGCGCAA	0.181
AGCGAGGC	0.0639
ACCGCCAG	0.107
CCTTGAAG	-0.0509
CTCAAAAG	0.0284
GAGGTTCC	0.0848
CGCGAGCC	0.375
TTCAACAA	-0.0792
CCTGATTC	-0.208
CACAAGTC	-0.109
AAATCAGC	-0.203
GACCGCAA	0.173
CGACGTAA	0.139
GAAAGAGC	-0.0393
CCCCAAAA	-0.229
ACAAGAGA	-0.225

Sample 5
Target: Sal-like protein 4, full length isoform A (SALL4, Homo sapiens, UniProt Q9UJQ4, residues 1-1053)
Sequence of UniProt Q9UJQ4 (whole entry, looked up): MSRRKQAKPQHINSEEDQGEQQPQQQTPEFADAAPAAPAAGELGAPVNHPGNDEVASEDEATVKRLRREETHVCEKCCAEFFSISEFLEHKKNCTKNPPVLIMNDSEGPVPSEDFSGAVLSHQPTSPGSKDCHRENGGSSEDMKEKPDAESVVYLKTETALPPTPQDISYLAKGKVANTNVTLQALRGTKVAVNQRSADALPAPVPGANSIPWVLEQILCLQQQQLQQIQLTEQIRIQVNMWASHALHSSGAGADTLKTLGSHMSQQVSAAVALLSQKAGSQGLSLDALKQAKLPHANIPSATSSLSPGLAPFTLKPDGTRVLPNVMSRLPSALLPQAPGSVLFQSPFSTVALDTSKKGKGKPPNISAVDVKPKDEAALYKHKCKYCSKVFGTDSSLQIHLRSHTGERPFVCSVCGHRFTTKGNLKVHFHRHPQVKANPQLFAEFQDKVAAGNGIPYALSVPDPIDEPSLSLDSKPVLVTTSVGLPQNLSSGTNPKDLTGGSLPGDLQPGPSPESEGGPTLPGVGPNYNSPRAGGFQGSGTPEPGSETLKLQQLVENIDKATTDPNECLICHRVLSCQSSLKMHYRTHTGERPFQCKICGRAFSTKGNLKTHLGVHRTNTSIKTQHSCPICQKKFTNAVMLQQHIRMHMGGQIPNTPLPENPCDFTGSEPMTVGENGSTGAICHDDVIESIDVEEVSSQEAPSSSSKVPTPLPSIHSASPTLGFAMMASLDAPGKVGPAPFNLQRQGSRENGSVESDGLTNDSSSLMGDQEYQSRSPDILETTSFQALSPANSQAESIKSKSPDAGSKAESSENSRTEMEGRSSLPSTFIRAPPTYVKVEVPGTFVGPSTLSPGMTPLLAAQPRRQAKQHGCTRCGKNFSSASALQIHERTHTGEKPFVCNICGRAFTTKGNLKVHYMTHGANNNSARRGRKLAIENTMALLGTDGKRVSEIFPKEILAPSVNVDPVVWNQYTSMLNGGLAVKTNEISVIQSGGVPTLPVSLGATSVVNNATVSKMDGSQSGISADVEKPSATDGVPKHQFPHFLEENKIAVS
Technique: universal PBM
Molecule type: double-stranded DNA, one strand shown
Matrix: in vitro
Tested at: 600 nM
Setting: 8-mer, flanks averaged, mean of replicates
Direction: higher = stronger binding
Strand	E-score
AGCAATAC	0.213
CATCCCAG	-0.137
AAGTCGCC	-0.311
ACGCTTGG	-0.147
ACGAGCCG	-0.203
CTCGACGC	-0.155
CGAAAACA	-0.0283
GCGTATAC	0.0799
ATGAGGTG	-0.117
GCTACGGA	-0.109
ATTAAAGC	0.227
AATTCACG	0.117
CGTACACC	-0.0955
ATGTGCAA	0.147
ATAGCTAG	0.0656
CACGATAA	0.234
ACATGCGC	-0.151
AACCGGGC	-0.317
ACCGTGTG	-0.2
CCTACTGC	-0.149
ACCACAAT	0.0455
AAAGTGAC	0.0241
ATAATGCC	0.13
CAGGTTCA	-0.114
ATAATTAC	0.437

A few entries again (sample 1):
Strand	bound/input enrichment
UUUGGCAAAAUCUUCCCUAAACCUAAUUUGAACAUCACAGAAGAGAUUACAGAAGACUCUGAUGAAAUACCUUCACAAUUUAUUUCUAGAAAAGAGUUGGAAAAGGGUCGUAUUUCUAGA	0.326 ratio
CUUCGGGUUUCUGAGACUGUGGCAUUCACUGACGUGAAUUCAAUCCUGCGCUACCUGGCUAGAAUUGCAACUACGUCUGGGCUGUAUGGGACUAACCUGAUGGAGCACACUGAGAUUGAU	1.02 ratio
AAAUAUGAAACUGUGCAAGACAUUCUGAAAGAAUUCUUUGAUUUACGAUUAAGUUAUUACGGUUUACGUAAGGAGUGGCUUGUGGGAAUGUUGGGAGCAGAAUCUACAAAGCUUAACAAU	0.188 ratio
CCUGAGAAUGUCUAUAGCGUUCACUUCGAAAAGGAGCAUAAAGCUGAGAAAGUCCCAGCCGUAGCUAACUACAUUAUGAAAAUACACAAUUUUACUAGCAAAUGCCUCUACUGUAAUCGC	22.2 ratio
AAAUUCUACAAACAAGUUAUUGAUAAAGGCCAGACAAUUCCAGAGGACAUCUUAGGGAAAAUAGCAGUUUCUAUUGUAAAAGCAUUAGAACAUUUACAUAGUAAGCUGUCUGUCAUUCAC	0.677 ratio
AUGUACAGGAAGAGCCAAGCCACAGGCUUUCCAUCACUUAUUACAAUUUUCUCUGCCCCCAAUUACCUAGAUGUCUAUAACAAUAAAGCUGCUGUGUUGAAAUAUGAAAACAAUGUCAUG	14.6 ratio
GCUUGGCAAGGUCUCGCUUUGCUGGUCCACAGAACAGUGGUUUUGCCACCAACUCAGUUUUCUUUGGACGACAGAGGAAGUAAAACUCCAGACAAUUCUGUCCCGAACUCCUCAAGUCUG	0.102 ratio
GGGACGAUUCAUCUCUUUCGAAAGCCACAGAGAUCUUUUUUUGGAAAGUUACUACAGGAAUUUAGACUUGUCGCAGCUGACCGGAGGUCCUGGAAGAUCCUUCUGUUCGGUGCAAUCAAC	0.138 ratio
ACCUUUGAUUUCAAAGGCGUGAUUGACUACAUUUUCUAUUCCAAGACUCAUAUGAACGUGCUUGGUGUCCUGGGGCCUUUAGAUCCUCAAUGGCUGGUUGAGAACAACAUCACUGGGUGU	0.206 ratio
GGGAGGCGUCCUGGGUGGAGGCAGUUCCAACCAGCAGCAGCAAAUACAGCUGCAGCAGUUACAGAUGGAGAAGGAGAGACUGCGGUUGAAACAACAGGAAUUAUUUCGGCAGGAAUUAGC	0.568 ratio
CACCCUCAGCCCAGUAUCAUCCCCCUGGAGCAGGGCUCCCCACUGGCUUCAGCAGGCCCUGGCACCUGCUCACCGGACAGCUUCUGCUGCUCUCCUGAUUCCUGCUCCGGAGCUUCUUCU	0.203 ratio
